Experimental data of several laboratories.
Each line is one published result; not all experiments were run side by side. ± marks the error that the study gave. Values after ≈ are worked out from the molar mass of the structure shown.

Substance	test	test system	setting	how to read	endpoint	value
O=c1cc(-c2ccc(O)c(-c3c(O)cc(O)c4c(=O)cc(-c5ccc(O)cc5)oc34)c2)oc2cc(O)cc(O)c12	UV-vis pH titration	ethanol-water, 0.1 M NaCl	25 µM, 25 °C, third pKa, o-carbonyl-phenol	–	pKa	7.61
des-acyl ghrelin (human)	–	mouse, Ghsr knockout, hypothalamus	intravenous, 10 min	–	brain/serum ratio	9.16 µL/g
CC(=O)O[C@H]1C(=O)[C@@]2(C)[C@H]([C@H](OC(=O)c3ccccc3)[C@]3(O)C[C@H](OC(=O)[C@H](O)[C@@H](NC(=O)c4ccccc4)c4ccccc4)C(C)=C1C3(C)C)[C@]1(OC(C)=O)CO[C@@H]1C[C@@H]2O	HPLC	Sprague Dawley rat, male, plasma	intravenous, 7 mg/kg	–	clearance	20 mL/min/kg
CS/C(S)=N/CCCC[S+](C)[O-] (racemic)	RT-PCR, item: Cyp2b15	rat, liver	oral gavage, 200 mg/kg, dosed for four days	reference: vehicle	mRNA fold change	2.05
O=C1N=C(N2CCOCC2)CN1c1ccc(Cl)cc1	–	beagle dog, male	oral, 30 mg/kg, tablets, fed	–	terminal half-life	1.92 h
O=C(O)C(F)(F)c1cc(F)ccc1Nc1c(Cl)cc(F)cc1Cl	–	human liver microsomes	30 min, added: NADPH	–	remaining compound	107 ± 3.7%
[2H]C([2H])([2H])Oc1cc2c(cc1OC([2H])([2H])[2H])C1CC(=O)C(CC(C)C)CN1CC2 (stereo not drawn)	item: deuterated total (α+β)-HTBZ	healthy human volunteers, plasma	oral, 12 mg single dose, standard meal	–	dose-normalized AUC(0-t)	21.7 ng·h/mL
CCOc1c([C@H](C)n2nc(C)c3c(N)ncnc32)cc(Cl)c(F)c1[C@@H]1CNC(=O)C1	–	healthy fasted humans, plasma	oral, 20 mg	–	terminal half-life geometric mean	14.2 h
Nc1nc(N)c2nc(CNc3ccc(C(=O)N[C@@H](CCC(=O)O)C(=O)O)cc3)cnc2n1	–	male beagle dogs, plasma	intravenous and subcutaneous, range over both routes	–	terminal half-life	2 to 2.74 h
C=C(C)[C@@H]1CC[C@]2(NCCN3CCS(=O)(=O)CC3)CC[C@]3(C)[C@H](CC[C@@H]4[C@@]5(C)CC=C(C6=CC[C@@](CF)(C(=O)O)CC6)C(C)(C)[C@@H]5CC[C@]43C)[C@@H]12	–	human, plasma	oral, 200 mg once daily, day 14	–	terminal half-life	22.1 h
Cn1c(-c2ccc(C(N)=O)cc2F)nnc1C(C)(C)Oc1c(F)cc(Cl)cc1F	–	young Japanese adults, plasma	oral, 50 mg single dose, day 1, high-dose multiple-dose study	–	half-life range over subjects	8.57 to 15.6 h
C=CC(N)CCC(=O)O (stereo not drawn)	–	male Sprague-Dawley rat, plasma	oral, 1.0 mg/kg, formulation 3, added: low-fat infant formula 1500 mg/kg	–	clearance	9.38 ± 0.2 mL/min/kg
CNC(=O)c1ccc(-c2cnc3ncc(Cc4ccc5ncccc5c4)n3n2)cc1F	–	human, severe hepatic impairment (Child-Pugh C), plasma	oral, 200 mg single dose	–	half-life (mean)	6.8 h
C/C=C(/C)C(=O)O[C@H]1C(C)=C[C@]23C(=O)[C@@H](C=C(CO)[C@@H](O)[C@]12O)[C@H]1[C@@H](C[C@H]3C)C1(C)C	–	phosphate buffer 30% acetonitrile	100 µM, 24 h, pH 7.4, 37 °C	–	remaining compound	~44%
CC(O)CCc1ccc(O)cc1 (stereo not drawn)	–	female C57BL/6J mice, brain	oral, 200 mg/kg, 0 to 12 h, low-fat diet	–	AUC(0-t)	19.4 ± 3.34 nmol·min/g
CC(C)=CCC[C@](C)(O[C@@H]1O[C@H](CO[C@@H]2O[C@H](CO)[C@@H](O)[C@H](O)[C@H]2O)[C@@H](O)[C@H](O)[C@H]1O)[C@H]1CC[C@]2(C)[C@@H]1[C@H](O)C[C@@H]1[C@@]3(C)CC[C@H](O[C@@H]4O[C@H](CO)[C@@H](O)[C@H](O)[C@H]4O[C@@H]4O[C@H](CO)[C@@H](O)[C@H](O)[C@H]4O)C(C)(C)[C@@H]3CC[C@]12C	–	Sprague Dawley rat, male, plasma	oral, 86 mg/kg, in white ginseng extract	–	CL/F	5 ± 1.33 mL/min/kg
O=C(c1cc(Cc2n[nH]c(=O)c3ccccc23)ccc1F)N1CCN(C(=O)C2CC2)CC1	–	cancer patients	oral, 200 mg twice daily, day 2, added: pegylated liposomal doxorubicin	–	AUC(0-10 h)	46200 ± 52000 ng·h/mL
CC[C@H](C)[C@@H]1NC(=O)[C@H](Cc2ccc(O)cc2)NC(=O)[C@@H](N)CSSC[C@@H](C(=O)N2CCC[C@H]2C(=O)N[C@@H](CC(C)C)C(=O)NCC(N)=O)NC(=O)[C@H](CC(N)=O)NC(=O)[C@H](CCC(N)=O)NC1=O	ELISA	C57BL/6J male mice, wild type, plasma	intraperitoneal, 12 µg total, total area from zero	–	AUC(0-t)	18000 ± 987 pg·30 min/sample
O=C(Cc1cccc(OC(F)(F)F)c1)Nc1ccc(CCCCc2nnc(NC(=O)Cc3ccccn3)s2)nn1	–	human patients, plasma	oral, 800 mg three times daily fasted, cycle 1 day 15 steady state	–	Cmin	232 ng/mL
Cc1cc(-c2cc(OC(=O)c3ccccc3)ccc2Cl)cc2nnc(Nc3ccc(OCCN4CCCC4)cc3)nc12	–	C57BL/6 mouse, plasma	topical, 1%	–	plasma concentration at 24 h	not detected

Substance	test	test system	setting	how to read	endpoint	value
CC(C)[C@H](NC(=O)[C@@H]1CCCN1C(=O)[C@H](CCCNC(=N)N)NC(=O)[C@H](CS)NC(=O)[C@H](Cc1c[nH]c2ccccc12)NC(=O)[C@H](CCCNC(=N)N)NC(=O)[C@@H](Cc1ccccc1)NC(=O)[C@H](Cc1c[nH]cn1)NC(=O)[C@H](CCC(=O)O)NC(=O)[C@H](CS)NC(=O)[C@H](CS)NC(=O)[C@H](CCCCN)NC(=O)[C@@H]1CC(=O)N[C@@H](CCCNC(=N)N)C(=O)N[C@@H]([C@@H](C)O)C(=O)N[C@@H](CC(=O)O)C(=O)N[C@H](Cc2ccc(O)cc2)C(=O)N1)C(N)=O [technetium-99m labelled]	–	C57 mouse, female, B16/F1 melanoma, skin	intravenous, 2 h, added: NDP-MSH 10 µg co-injected	–	tissue uptake	1.21 ± 0.64 %ID/g
CCCC[C@@H]1NC(=O)[C@@H](NC(=O)[C@H](CCC(=O)O)NC(=O)CNC(=O)CN2CCN(CC(=O)O)CCN(CC(=O)O)CCN(CC(=O)O)CC2)CCCCNC(=O)C[C@@H](C(N)=O)NC(=O)[C@H](C(C)C)NC(=O)[C@@H]2CCCN2C(=O)[C@H](CCCNC(=N)N)NC(=O)CNC(=O)[C@H](Cc2c[nH]c3ccccc23)NC(=O)[C@H](CCCNC(=N)N)NC(=O)[C@@H](Cc2ccccc2)NC(=O)[C@H](Cc2c[nH]cn2)NC(=O)[C@H](CCC(=O)O)NC1=O [indium-111 labelled]	–	C57 mice, B16/F10 lung metastatic melanoma, muscle	intravenous, 0.037 MBq, 2 h	–	tissue uptake	0.04 ± 0.03 %ID/g
NCCCn1c2c(c3ccc(N)cc3c1=O)C(=O)c1ccccc1-2	–	Sprague-Dawley rat, female, mammary gland, pooled	oral gavage, 40 mg/kg/day, 3 h after last dose, dosed 3 days	–	tissue concentration	290 ng/g
CCCOc1ccc([C@H]2CNC(=O)N2c2ccc3[nH]cnc3c2)cc1	–	human, plasma	oral, 50 mg, single dose, fasted	–	Cmax	199 ng/mL
CC[C@H](C)[C@H](NC(=O)[C@H](CCCNC(=N)N)NC(=O)[C@@H]1CCCN1C(C)=O)C(=O)N[C@@H](CC(=O)O)C(=O)N[C@H](C(=O)N[C@@H](CCCNC(=N)N)C(=O)N[C@H](C(=O)N[C@@H](CC(=O)O)C(=O)N1CCC[C@H]1C(N)=O)[C@@H](C)CC)[C@@H](C)CC	rotational rheometry	1% w/v aqueous solution	shear rate range 1-1000 s^-1	–	viscosity	543 ± 19.5 Pa·s
CC1=C2C[C@H]3[C@@H](CC[C@@H]4C[C@H](NS(C)(=O)=O)CC[C@@]43C)[C@@H]2CC[C@@]2(C1)O[C@@H]1C[C@H](C)CN[C@H]1[C@H]2C	–	patients, plasma	oral, 90 mg single, day -7, cycle 1	–	AUC(0-24)	263 ng·h/mL
CCN1CC(=O)N[C@@H](CC(C)C)C(=O)N(C)[C@@H](C)C(=O)N[C@@H](CC(C)C)C(=O)N2CCC[C@@H]2C(=O)N(CC2CCOCC2)CC(=O)N[C@@H](CC(C)C)C(=O)N(C)[C@@H](C)C(=O)N[C@@H](Cc2ccccc2)C(=O)N2CCC[C@@H]2C1=O	–	mouse	added: 1-aminobenzotriazole pretreatment	–	oral bioavailability	5%
CC(C)OC(=O)[C@H](CCC(=O)C=[N+]=[N-])NC(=O)OC(OC(=O)C(C)(C)C)c1ccccc1 (stereo partly drawn)	–	mouse plasma	10 µM, 60 min, 37 °C	–	remaining compound	0%
C=CC(=O)Nc1cc(Nc2ncc(C(=O)OC(C)C)c(-c3cn(C)c4ccccc34)n2)c(OC)cc1N(C)CCN(C)C	–	human, fasted	oral, 80 mg single dose, geometric mean	–	terminal half-life	14.3 h
CCCC[C@H](NC(C)=O)C(=O)N[C@H]1CCC(=O)NC[C@@H](C(=O)N[C@@H](Cc2c[nH]c3ccccc23)C(N)=O)NC(=O)[C@H](CCCNC(=N)N)NC(=O)[C@@H](Cc2ccccc2)NC(=O)[C@H](Cc2c[nH]cn2)NC1=O	–	beagle dog, male, plasma	subcutaneous, 40.0 mg/kg daily, day 1	–	Tmax	0.88 h
C[C@@H](O)[C@H]1C(=O)N2C(C(=O)O)=C(S[C@@H]3CN[C@H](C(=O)N(C)C)C3)[C@H](C)[C@H]12	–	pig, Danish Landrace, plasma	intravenous, 1000 mg over 10 min, 450 min dosing interval, added: 2.0 µg/mL MIC	reference: dosing interval	time above MIC	40%
Nc1ccc(-c2nc(-c3ccc(Oc4ccc(C(F)(F)F)cc4)cc3)no2)cc1	–	ICR mice, plasma	intravenous, 50 mg/kg	–	initial half-life	6.7 min
CC(C)C[C@H](NC(=O)[C@H](CCCNC(=N)N)NC(=O)[C@H](CC(N)=O)NC(=O)[C@H](CC(=O)O)NC(=O)[C@H](CCCNC(=N)N)NC(=O)CNC(=O)CNC(=O)CNC(=S)Nc1ccc(C[C@H]2CN(CC(=O)O)CCN(CC(=O)O)CCN2CC(=O)O)cc1)C(=O)N[C@@H](CC(N)=O)C(=O)N[C@H](C(=O)NCC(=O)NCC(=O)N[C@H](C(=O)N[C@@H](Cc1ccc(O)cc1)C(=O)N[C@@H](Cc1ccccc1)C(=O)N[C@@H](CC(C)C)C(=O)N[C@H](C(=O)N[C@H](C(=O)N[C@@H](CCCNC(=N)N)C(=O)N[C@@H](CCC(N)=O)C(=O)O)[C@@H](C)O)[C@@H](C)O)[C@@H](C)O)C(C)C [fluorine-18 labelled]	radio-HPLC	mouse (HepG2 tumour-bearing), kidney	intravenous, 5.55 MBq, 1 h	–	intact parent radiotracer	7.7 ± 2.56%
CC[C@@H]1CN(C(=O)NCC(F)(F)F)C[C@@H]1c1cnc2cnc3[nH]ccc3n12	–	human, severe renal impairment, urine and plasma	oral, 15 mg single dose, extended release, fasted, geometric mean	–	renal clearance	15.7 mL/min
N=C(N)c1ccc(CNC(=O)[C@@H]2CCN2C(=O)[C@H](NCC(=O)O)C2CCCCC2)cc1	–	Wistar rats male, plasma	intravenous, 0.03 mg/kg, 15 min, 10 min after TF	–	plasma concentration	45.9 ± 5.7 ng/mL
CN1CC[C@@H](NC(=O)Nc2ccc(C#N)cc2)C[C@@H]1c1nc2ccccc2[nH]1	–	normal hepatic function, plasma	oral, 100 mg single dose, fasted, arithmetic mean	–	AUC(0-inf), unbound	889 ± 303 ng·h/mL
C[C@](N)(Cc1ccc(O)c(O)c1)C(=O)O	static gravimetric method	supercritical CO2, 826.1 kg/m3	5 h, 323 K, pressure 24 MPa	–	solubility	282 µg/mL (≈ 1330 µM)
C[C@H](N)C(=O)N[C@@H](Cc1ccccc1)C(=O)N[C@@H](C)C(=O)O	–	water	room temperature, pH near terminal pKa	–	water solubility	670 mM (≈ 206 mg/mL)
C[C@@H]1O[C@@H](Oc2c(-c3ccc(O)c(O)c3)oc3cc(O)cc(O)c3c2=O)[C@H](O)[C@H](O)[C@H]1O	–	human, urine	oral, dose not given, 5 h	–	concentration	150 ng/mL
